Experimental data from different studies.
Protocols differ between the studies behind these lines. Numbers after ± are the reported error.

SMILES	assay	system	setting	measurement	value
O=C1NC2(CC2)COc2ncc(F)cc2[C@H]2COCCN2c2ccn3ncc1c3n2		Sprague-Dawley rat, male, blood	oral, 10 mg/kg/day, 4 weeks, end of treatment, subacute toxicity	lymphocyte percentage	72.3 ± 13.3%
O=C([O-])CNC(=O)CN1CCN(CC(=O)NCC(=O)[O-])CCN(CC(=O)NCC(=O)[O-])CCN(CC(=O)NCC(=O)[O-])CC1.[177Lu+3]		Sprague-Dawley rat, kidney	intravenous (tail vein), dose not given, 2 h	tissue uptake	0.281 ± 0.05 % injected dose/g
Cc1ccccc1-c1ccc(-c2nc(-c3ccc(CN(C)CCCC(=O)O)c([18F])c3)no2)cc1C(F)(F)F		Sprague Dawley rats, male, fat	120 min	tissue uptake	0.06 ± 0.04 %ID/g
CCOP(=O)(CNC(=O)CN1CCN(CC(=O)NCP(=O)(OCC)OCC)CCN(CC(=O)NCP(=O)(OCC)OCC)CCN(CC(=O)NCP(=O)(OCC)OCC)CC1)OCC.[177Lu+3]		Sprague-Dawley rat, blood	intravenous (tail vein), dose not given, 2 h	tissue uptake	0.04 ± 0.008 % injected dose/g
CN1Cc2cc(Cl)ccc2-n2c(nnc2C2CCN(c3cccc([18F])n3)CC2)C1		C57BL/6 mouse male, testis	intravenous, 3.7 MBq, 5 min	tissue uptake	0.82 ± 0.05 %ID/g
CSCC[C@H](NC(=O)CNC(=O)[C@H](CCCCN)NC(=O)[C@H](CC(C)C)NC(=O)[C@@H]1CCCN1C(=O)[C@H](CO)NC(=O)[C@H](Cc1c[nH]cn1)NC(=O)[C@H](Cc1c[nH]c2ccccc12)NC(=O)[C@H](CCCNC(=N)N)NC(=O)[C@H](CC(C)C)NC(=O)[C@H](CCCNC(=N)N)NC(=O)[C@H](Cc1c[nH]c2ccccc12)NC(=O)[C@H](CS)NC(=O)CCCCCNC(=O)CN1CCN(CC(=O)O)CCN(CC(=O)O)CCN(CC(=O)O)CC1)C(=O)O [copper-64 labelled]	ex vivo biodistribution	BALB/c nude mice, brain	intravenous, dose not given, 6 h, Huh-7 tumour-bearing	tissue uptake	0.21 %ID/g
CCCC[C@H]1C(=O)N(C)[C@@H](CCCC)C(=O)N[C@@H](CCCNC(=O)CN2CCN(CC(=O)O)CCN(CC(=O)O)CCN(CC(=O)O)CC2)C(=O)N[C@H](C(=O)NCC(N)=O)CSCC(=O)N[C@@H](Cc2ccc(O)cc2)C(=O)N(C)[C@@H](C)C(=O)N[C@@H](CC(N)=O)C(=O)N2CCC[C@H]2C(=O)N[C@@H](Cc2c[nH]cn2)C(=O)N[C@@H](CC(C)C)C(=O)N(C)CC(=O)N[C@@H](Cc2c[nH]c3ccccc23)C(=O)N[C@@H](CO)C(=O)N[C@@H](Cc2c[nH]c3ccccc23)C(=O)N1C [gallium-68 labelled]		NOD/SCID mice, CHO-hPD-L1 xenograft, muscle	60 min, PBS pretreatment	tissue uptake	0.89 ± 0.13 %ID/g
CC(C)C[C@@H](NC(=O)[C@@H](CCCNC(=N)N)NC(=O)[C@@H](Cc1c[nH]cn1)NC(=O)[C@@H](Cc1c[nH]c2ccccc12)NC(=O)[C@@H](Cc1c[nH]cn1)NC(=O)[C@@H](Cc1ccccc1)NC(=O)[C@H](NC(=O)[C@@H](Cc1ccc(O)cc1)NC(=O)CNC(=O)CNC(=O)CCOCCOCCOCCNC(=O)CN1CCN(CC(=O)O)CCN(CC(=O)O)CC1)[C@H](C)O)C(=O)N[C@H](CC(N)=O)C(=O)N1CCC[C@@H]1C(=O)O [gallium-68 labelled]	gamma counting	C57BL/6 mice, male, bone	intravenous, 1.85 MBq, 120 min	tissue uptake	0.67 ± 0.21 %ID/g
CC[C@H](C)[C@H](NC(=O)[C@H](CCCNC(=N)N)NC(=O)[C@H](CCCCN)NC(=O)[C@H](Cc1ccc(O)cc1)NC(=O)[C@H](CC(=O)O)NC(=O)[C@H](C)NC(=O)CNC(=O)CCOCCOCCOCCNC(=O)CN1CCN(CC(=O)O)CCN(CC(=O)O)CCN(CC(=O)O)CC1)C(=O)N[C@H](C(=O)N[C@@H](CC(C)C)C(=O)N[C@@H](CCCCN)C(=O)N[C@H](C(=O)N[C@@H](CC(N)=O)C(N)=O)C(C)C)[C@@H](C)O [copper-64 labelled]	ex vivo gamma counting	C57BL/6J male mice, B16-F10 tumour, liver	intravenous, 1.85 MBq, 40 min	tissue uptake	3.7 ± 0.954 %ID/g
C[C@H](O)[C@@H](NC(=O)[C@H]1CCCN1C(=O)[C@@H](CCCCN)NC(=O)[C@@H](CO)NC(=O)[C@@H](Cc1ccc(O)cc1)NC(=O)[C@@H](CC(N)=O)NC(=O)CCOCCOCCOCCNC(=O)CN1CCN(CC(=O)O)CCN(CC(=O)O)CCN(CC(=O)O)CC1)C(=O)N[C@H](CC(=O)O)C(=O)N[C@H](CCCNC(=N)N)C(=O)N[C@H](CCC(N)=O)C(=O)N[C@H](Cc1ccc(O)cc1)C(=O)N[C@H](Cc1c[nH]cn1)C(=O)N[C@H](Cc1ccccc1)C(N)=O [gallium-68 labelled]		BALB/c nude mice U-87 MG tumour, liver	intravenous, 1.85 MBq, 0.5 h, radiolabelled	tissue uptake	0.59 ± 0.43 %ID/g
CC[C@H](C)[C@H](NC(=O)[C@H](CCCCN)NC(=O)CNC(=O)[C@H](CC(C)C)NC(=O)[C@H](Cc1ccccc1)NC(=O)[C@H](CCCCN)NC(=O)[C@H](CO)NC(=O)[C@H](Cc1ccccc1)NC(=O)[C@H](Cc1c[nH]c2ccccc12)NC(=O)[C@H](CCC(N)=O)NC(=O)[C@@H](NC(=O)[C@H](Cc1ccccc1)NC(=O)CCCCCNC(=O)CN1CCN(CC(=O)O)CCN(CC(=O)O)CCN(CC(=O)O)CC1)C(C)C)C(=O)N[C@@H](CCC(=O)O)C(=O)N1CCC[C@H]1C(=O)N[C@@H](CC(=O)O)C(=O)N[C@H](C(=O)N[C@@H](CO)C(=O)N[C@@H](CCC(N)=O)C(=O)N[C@H](C(=O)N[C@@H](CCC(N)=O)C(=O)N[C@@H](CC(=O)O)C(=O)N1CCC[C@H]1C(=O)N[C@@H](CC(N)=O)C(=O)N[C@@H](CC(=O)O)C(=O)N[C@@H](CCC(N)=O)C(=O)N[C@@H](Cc1ccc(O)cc1)C(=O)N[C@@H](CCC(=O)O)C(=O)N1CCC[C@H]1C(=O)N[C@@H](Cc1ccccc1)C(=O)O)C(C)C)C(C)C [copper-64 labelled]		C57BL/6 male mouse, tumour-naive, brain	0.5 h	tissue uptake	0.33 ± 0.06 %ID/g

Repeated from above:
SMILES	assay	system	setting	measurement	value
Cc1ccccc1-c1ccc(-c2nc(-c3ccc(CN(C)CCCC(=O)O)c([18F])c3)no2)cc1C(F)(F)F		Sprague Dawley rats, male, fat	120 min	tissue uptake	0.06 ± 0.04 %ID/g
